Results pooled from the literature.
Compare with care: the assays were run in different laboratories. Numbers after ± are the reported error. Square brackets hold non-standard residues; d marks the D form. Ends that are not written are not given here.
CXCR4: C-X-C chemokine receptor type 4 (CXCR4, Homo sapiens, UniProt P61073)
SLC10A1: Hepatic sodium/bile acid cotransporter (SLC10A1, Homo sapiens, UniProt Q14973)
Protein farnesyltransferase: Protein farnesyltransferase (Homo sapiens, UniProt P49354+P49356)
T1: DNA:RNA hybrid triplex, strand 1 RNA, strand 2 DNA; chain A; chain T
T2: RNA aptamer minimized 9-12; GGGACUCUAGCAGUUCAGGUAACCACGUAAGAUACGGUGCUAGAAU
T3: RNA aptamer; CUUGGUUUAGGUAAUGAG
T4: RNA aptamer A45C/A49U/C71U; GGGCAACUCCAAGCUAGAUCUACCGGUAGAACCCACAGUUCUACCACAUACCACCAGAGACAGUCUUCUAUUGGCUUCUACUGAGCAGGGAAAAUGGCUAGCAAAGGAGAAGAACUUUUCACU

c1cc(CN2CCOCC2)ccc1CN1CCOCC1 — lowest effective concentration (CXCR4; binding, competition binding; MDA-MB-231; semi-quantitative screen, with: biotinylated TN14003): > 1000 nM
O=C(NCc1ccc(CNS(=O)(=O)c2ccc(F)cc2)cc1)c1ccc(CNc2ncccn2)cc1 — lowest effective concentration (CXCR4; binding, competitive inhibitor, competitive binding; MDA-MB-231; semi-quantitative rhodamine readout, with: biotinylated TN14003): > 1000 nM
NC[C@@H]1O[C@H](O[C@H]2[C@@H](O)[C@H](O[C@@H]3[C@@H](O)[C@H](N)C[C@H](N)[C@H]3O[C@H]3O[C@H](CN)[C@@H](O)[C@H](O)[C@H]3N)O[C@@H]2CO)[C@H](N)[C@@H](O)[C@@H]1O — melting temperature (T1, DNA:RNA hybrid triplex, strand 1 RNA, strand 2 DNA; UV melting; 20 µM, NaCl 18 mM, no triplex without ligand): 53.2 °C
c1ccc(CN(Cc2ccc(CN(Cc3ccccc3)CC3CC3)cc2)CC2CC2)cc1 — lowest effective concentration (CXCR4; binding, competition binding; MDA-MB-231; semi-quantitative screen, with: biotinylated TN14003): 1000 nM
CCCN(CCC)S(=O)(=O)c1ccc(C(=O)O)cc1 — taurocholate uptake (SLC10A1; inhibitor; HEK293 expressing NTCP; 100 µM, 5 min, with: taurocholate 10 µM; baseline: no compound): 86.8 ± 3.3%
CC(=O)N[C@@H](Cc1ccccc1)C(=O)N[C@@H](CO)C(=O)N[C@H](C(=O)N[C@@H](CC(=O)O)C(=O)N[C@@H](Cc1ccc(OP(=O)(O)O)cc1)C(=O)NCC(=O)N[C@@H](CCC(=O)O)C(=O)N[C@@H](CC(C)C)C(=O)N[C@@H](CC(=O)O)C(=O)N[C@@H](Cc1ccccc1)C(=O)N[C@@H](CCC(N)=O)C(N)=O)C(C)C — conformational entropy change (Tyrosine-protein phosphatase non-receptor type 11, N-SH2 domain (PTPN11, Homo sapiens, UniProt Q06124); peptide binding; concentration not given, 298 K): -32.6 J/(mol·K)
CC[C@H](C)[C@H](NC(=O)[C@H](Cc1c[nH]cn1)NC(=O)[C@H](CC(=O)O)NC(=O)[C@H](C)NC(=O)[C@H](CC(C)C)NC(=O)[C@@H](NC(=O)[C@@H](NC(=O)[C@H](CC(C)C)NC(=O)[C@H](CCCNC(=N)N)NC(=O)[C@H](C)NC(=O)[C@@H](NC(=O)[C@H](CCCNC(=N)N)NC(=O)[C@@H]1CCCN1C(=O)[C@@H](NC(=O)[C@H](CCC(N)=O)NC(=O)CN)C(C)C)[C@@H](C)O)[C@@H](C)CC)[C@@H](C)O)C(=O)N[C@@H](CS)C(=O)N[C@@H](CCC(N)=O)C(=O)N[C@H](C(=O)N[C@H](C(=O)N[C@H](C(=O)N[C@@H](CCC(N)=O)C(=O)N[C@@H](CC(=O)O)C(=O)N[C@@H](Cc1ccccc1)C(=O)N[C@@H](C)C(=O)N[C@@H](CCCNC(=N)N)C(=O)O)[C@@H](C)O)[C@@H](C)CC)[C@@H](C)CC — IC50 fold change (NR1D1 (Homo sapiens, UniProt P20393); NCoR peptide binding, competitor, TR-FRET; 1 h, with: labelled NCoR 2040-2065 peptide; baseline: mutant over wild-type peptide): 2.5
CKVL — relative fluorescence increase (Protein farnesyltransferase; enzyme activity, substrate, fluorimetric; peptide; 3 µM, 30 min, with: 9 µM farnesyl diphosphate; baseline: dansyl-GCVLS (set to 1.0)): < 0.05
Nc1nc2c(ncn2[C@@H]2O[C@H](COP(=O)(O)OP(=O)(O)OP(=O)(O)O)[C@@H](O)[C@H]2O)c(=O)[nH]1 — Kd (T2, RNA aptamer minimized 9-12; ultrafiltration; apparent, with: GTP): 300 nM
NC[C@H]1O[C@H](O[C@H]2[C@H](O)[C@@H](O[C@H]3O[C@H](CO)[C@@H](O)[C@H](N)[C@H]3O)[C@H](N)C[C@@H]2N)[C@H](N)C[C@@H]1O — Kd (T3, RNA aptamer; square wave voltammetry; apparent, on gold electrode, electrochemical aptamer sensor): 45 nM
CN(C)c1ccc(C(=C2C=CC(=[N+](C)C)C=C2)c2ccc(N(C)C)cc2)cc1 — inhibition (Cell division cycle 7-related protein kinase, with DBF4 (CDC7, Homo sapiens, UniProt O00311); kinase activity, scintillation proximity; 10 µM, 1% DMSO, with: Dbf4): > 30%
CCCCCCCCCCCC=O — remaining 1-NPN fluorescence (Chilo suppressalis CSP2; binding, competitive ligand, fluorescence competitive binding; highest concentration tested, pH 7.4, protein 2 µM, with: 1-NPN 2 µM; baseline: no ligand): 41.8 ± 1.38%
CCOC(=O)C1=C[C@@H](OC(CC)CC)[C@H](NC(C)=O)[C@@H](N)C1 — taurocholate uptake (SLC10A1; inhibitor; HEK293 expressing NTCP; 100 µM, 5 min, with: taurocholate 10 µM; baseline: no compound): 102 ± 9%
A[Phe(4-F)]R[Cha][hArg]Y (Phe(4-F) = N[C@@H](Cc1ccc(F)cc1)C(=O)O; Cha = N[C@@H](CC1CCCCC1)C(=O)O; hArg = N=C(N)NCCCC[C@H](N)C(=O)O) — binding free energy (F2R (Homo sapiens, UniProt P25116); AFM force spectroscopy; proteoliposomes): ~-11.8 kcal/mol
Oc1c(C(Nc2ccccc2)c2c(F)cc(Br)cc2F)ccc2ccccc12 (stereo not shown) — remaining activity (CAAX prenyl protease 2 (Homo sapiens, UniProt Q9Y256); enzyme activity, inhibitor; 10 µM): < 40%
O=C(NCc1ccc(CNS(=O)(=O)c2cccnc2)cc1)c1ccc(F)cc1 — lowest effective concentration (CXCR4; binding, competitor, rhodamine fluorescence; MDA-MB-231; semi-quantitative screen, with: biotinylated TN14003): 1000 nM
CCCCCCCCCCCC(=O)O — remaining 1-NPN fluorescence (Chilo suppressalis CSP2; binding, competitive ligand, fluorescence competitive binding; highest concentration tested, pH 7.4, protein 2 µM, with: 1-NPN 2 µM; baseline: no ligand): 75.9 ± 3.78%
C[C@H]1[C@H](NC(=O)/C(=N\OC(C)(C)C(=O)O)c2csc(N)n2)C(=O)N1S(=O)(=O)O — taurocholate uptake (SLC10A1; inhibitor; HEK293 expressing NTCP; 100 µM, 5 min, with: taurocholate 10 µM; baseline: no compound): 104 ± 4%
NC(=O)c1cccc2[nH]c(-c3cccc(C(=O)N4CCn5c(nnc5C(F)(F)F)C4)c3)nc12 — PARP1 bound to DNA (PARP1 (Homo sapiens, UniProt P09874); DNA binding, fluorescence polarization DNA competition; 100 µM, 200 s, with: unlabeled competitor DNA 2 µM): 3.9 ± 4.8%
N.N.N.O=c1[nH]c(=O)n([C@@H]2O[C@H](COP(=O)(O)OP(=O)(O)O)[C@@H](O)[C@H]2O)cc1I — breakthrough time (GPR17 (Homo sapiens, UniProt Q13304); frontal affinity chromatography-MS; immobilized on IAM column; 1 µM, compound mixture): 4.06 min
CEKL — relative fluorescence increase (Protein farnesyltransferase; enzyme activity, substrate, fluorimetric; peptide; 3 µM, 30 min, with: 9 µM farnesyl diphosphate; baseline: dansyl-GCVLS (set to 1.0)): 0
O=C(CCn1ccc2ccc(Cl)cc21)N(c1ccc(F)cc1)c1ccc(F)cc1 — maximum fold increase (Proteasome subunit alpha type-2/Proteasome subunit alpha type-6, 20S proteasome (Homo sapiens, UniProt P25787+P60900); proteolysis, activator, fluorogenic peptide; purified 20S proteasome; up to 30 µM, with: Suc-LLVY-AMC, Z-LLE-AMC, Boc-LRR-AMC; baseline: vehicle): 4.4
CC(C)=CCC/C(C)=C/CC/C(C)=C/CO — dehydrogenase activity (Alcohol dehydrogenase 1 (Adh1, Rattus norvegicus, UniProt P06757); substrate; 0.1 mM, pH 7.4, with: 2 mM NAD+): 0.68 U/mg
CCLL — relative fluorescence increase (Protein farnesyltransferase; enzyme activity, substrate, fluorimetric; peptide; 3 µM, 30 min, with: 9 µM farnesyl diphosphate; baseline: dansyl-GCVLS (set to 1.0)): < 0.05
CCCc1ccc(Oc2ccccc2)c(O)c1 — dissociation rate constant (Enoyl-[acyl-carrier-protein] reductase [NADPH] FabI (Staphylococcus aureus, UniProt Q6GI75); enzyme activity, inhibitor, progress curve kinetics): 0.99 h⁻¹
O=C1C(CC[S+]([O-])c2ccccc2)C(=O)N(c2ccccc2)N1c1ccccc1 (stereo not shown) — taurocholate uptake (SLC10A1; inhibitor; HEK293 expressing NTCP; 100 µM, 5 min, with: taurocholate 10 µM; baseline: no compound): 96.1 ± 3.2%
CCCC/C=C\CCCCCCCCCCCC=O — remaining 1-NPN fluorescence (chemosensory protein 1 (Chilo suppressalis, UniProt V9PY22); binding, competitive ligand, fluorescence competitive binding; highest concentration tested, pH 7.4, protein 2 µM, with: 1-NPN 2 µM; baseline: no ligand): 51.1 ± 1.62%
Cc1ncsc1-c1ccc(CNC(=O)[C@@H]2C[C@@H](O)CN2C(=O)[C@@H](NC(=O)CCCCCCCCCCNC(=O)O[C@H]2C[C@@H](C)C=C3C=C[C@H](C)[C@H](CC[C@@H]4C[C@@H](O)CC(=O)O4)[C@H]32)C(C)(C)C)cc1 — remaining protein level (HMGCR (Homo sapiens, UniProt P04035); Western blot; HepG2; 1 µM, 16 h; baseline: untreated control): 42%
NC[C@@H]1O[C@H](O[C@H]2[C@@H](O)[C@H](O[C@@H]3[C@@H](O)[C@H](N)C[C@H](N)[C@H]3O[C@H]3O[C@H](CN)[C@@H](O)[C@H](O)[C@H]3N)O[C@@H]2CO)[C@H](N)[C@@H](O)[C@@H]1O — Kd (T4, RNA aptamer A45C/A49U/C71U; ITC; 25 °C, KCl 250 mM): > 10000 nM
Oc1ccc(-c2ccc(Cl)cc2)c(Cl)c1 — Vmax (SULT2A1 (Homo sapiens, UniProt Q06520); substrate, HPLC of PAP formation; substrate inhibition fit, with: PAPS 200 µM): 56.1 ± 42.6 nmol/min/mg
O=C(O)/C(O)=C/C=C\Br — KI (xylH (Pseudomonas putida, UniProt Q01468); irreversible inactivation, covalent inhibitor; pH 7.3, 24 °C): 60000 nM
CSTL — relative fluorescence increase (Protein farnesyltransferase; enzyme activity, substrate, fluorimetric; peptide; 3 µM, 30 min, with: 9 µM farnesyl diphosphate; baseline: dansyl-GCVLS (set to 1.0)): 0
C[C@H](NC(=O)[C@H](C)NC(=O)[C@H](CCCNC(=N)N)N(C)C(=O)[C@@H]1CCCN1C(=O)[C@H](CCCNC(=N)N)NC(=O)CNC(=O)c1ccc2c(c1)C1(OC2=O)c2ccc(O)cc2Oc2cc(O)ccc21)C(=O)N[C@H](C(=O)N[C@@H](Cc1ccccc1)C(=O)N[C@@H](C)C(=O)N[C@@H](CCC(=O)O)C(=O)NCC(N)=O)[C@@H](C)O — time to half phosphorylation (AKT1 (Homo sapiens, UniProt P31749); substrate, CE-LIF; 25 µM, pH 7.0, 30 °C, enzyme 6 nM, with: ATP 1 mM): 1010 min
O=C1C=CC(=O)C=C1 — binding free energy (Reaction center protein M chain, QA site (pufM, Cereibacter sphaeroides, UniProt P0C0Y9); P+QA- formation, flash absorbance at 605 nm; Cereibacter sphaeroides, QA-depleted reaction centers; pH 8.0, 22 °C, oxidized quinone at QA site, weakest binder, uncertain): -3.54 kcal/mol

For quick reference, copied from above:
NC[C@@H]1O[C@H](O[C@H]2[C@@H](O)[C@H](O[C@@H]3[C@@H](O)[C@H](N)C[C@H](N)[C@H]3O[C@H]3O[C@H](CN)[C@@H](O)[C@H](O)[C@H]3N)O[C@@H]2CO)[C@H](N)[C@@H](O)[C@@H]1O — melting temperature (T1, DNA:RNA hybrid triplex, strand 1 RNA, strand 2 DNA; UV melting; 20 µM, NaCl 18 mM, no triplex without ligand): 53.2 °C
c1ccc(CN(Cc2ccc(CN(Cc3ccccc3)CC3CC3)cc2)CC2CC2)cc1 — lowest effective concentration (CXCR4; binding, competition binding; MDA-MB-231; semi-quantitative screen, with: biotinylated TN14003): 1000 nM
